Experimental data of several laboratories.
Each line is one published result; not all experiments were run side by side. Numbers after ± are the reported error. Converted amounts (≈) assume the structure as drawn.

CC(C)CCCC(C)CCCC(C)CCO[C@@H]1O[C@H](CO)[C@@H](O[C@H]2O[C@H](CO)[C@@H](O)[C@H](O)[C@H]2O)[C@H](O)[C@H]1O (some centres unmarked)  surface tension at induction time (dynamic surface tension; 0.0072 mmol/L): 64.3 mN/m
COc1ccc2cc(-c3ccc(-c4ccc(C)cn4)nc3)oc2c1  fluorescence quantum yield (toluene; together with: quinine bisulfate reference): 0.71
O=C(O)C1CN(Cc2ccc(-c3noc(-c4ccc(OCC[18F])c(C(F)(F)F)c4)n3)cc2)C1  tracer uptake (rat, pancreas; intravenous, 30 min): 0.32 %ID/g
Cc1ccc(OCC(=O)N(Cc2cccs2)c2ccn[nH]2)cc1  oral bioavailability (beagle dog, male, plasma; oral gavage, 100 mg/kg): 0.75%
Cn1c(=O)oc2ccc(-c3ccc(CC(C#N)NC(=O)C4CNCCCO4)c(F)c3)cc21 (centres unmarked)  skin exfoliation incidence (human; oral, 40 mg once daily, TEAE, multiple ascending dose): 0%
CCC/C(=C\C1=C(F)C(=O)c2ccccc2C1=O)C(=O)N(CC)CC  thermodynamic solubility (FaSSIF; 24 h, 37 °C): 85 µg/mL (≈ 248 µM)
CC(C)(O)c1ncc([S@](N)(=O)=NC(=O)Nc2c3c(cc4c2CCC4)CCC3)s1  Tmax (healthy humans; oral, 30 to 600 mg, suspension, median range): 1.5 to 3 h
CCCC[C@@H]1NC(=O)[C@@H](NC(=O)[C@H](CCC(=O)O)NC(=O)CNC(=O)CN2CCN(CC(=O)O)CCN(CC(=O)O)CCN(CC(=O)O)CC2)CCCCNC(=O)C[C@@H](C(N)=O)NC(=O)[C@H](C(C)C)NC(=O)[C@@H]2CCCN2C(=O)[C@H](CCCNC(=N)N)NC(=O)CNC(=O)[C@H](Cc2c[nH]c3ccccc23)NC(=O)[C@H](CCCNC(=N)N)NC(=O)[C@@H](Cc2ccccc2)NC(=O)[C@H](Cc2c[nH]cn2)NC(=O)[C@H](CCC(=O)O)NC1=O [gallium-67 labelled]  tumour to kidney ratio (C57 mice with B16/F1 melanoma; intravenous, 0.037 MBq/mouse, 24 h; reference: tumour over kidney): 0.24
COc1ccc(-c2csc(N/N=C(\C)c3cc(O)cc(O)c3)n2)cc1  long-term stability change (LC-MS/MS; rat plasma; 3.75 ng/mL, 45 days, -70 °C): -5.87%
CC(NC(=O)OC1OC(C(=O)O)C(O)C(O)C1O)c1cc(Cl)ccc1Cn1c(=S)[nH]c(=O)c2[nH]ccc21 (centres unmarked)  unbound fraction (equilibrium dialysis; beagle dog, male, plasma; 10 µM, 16 h, 37 °C): 36 ± 3.1%
CCCCCCCCCCCCCCCC(=O)N[C@@H](CCCCN)C(=O)N[C@H](C(=O)N[C@H](C(=O)N[C@@H](CCCCN)C(=O)N[C@@H](CO)C(=O)O)[C@@H](C)O)[C@@H](C)O  percent of applied dose in stratum corneum (hairless mouse, skin, Franz cell; 50 µg/cm^2 applied, 24 h): 8.3%
CC(C)c1cnc(-c2cc(Cl)ccc2F)cc1Nc1ccncc1C(=O)NC(CO)CO  patients with treatment-related adverse event (monotherapy, measured: vomiting; human patients; oral, dose not given, grade 1, phase I A): 9.5%
CSCCC(NC(C)=O)C(=O)O.[Ru+2].c1ccc(-c2cccc(-c3ccccn3)n2)nc1.c1ccc(-c2ccccn2)nc1  photosubstitution quantum yield (water; 470 nm light): 0.0027
Cc1ccc(-c2ccc(-c3cc4sccc4o3)cn2)nc1  fluorescence quantum yield (dioxane; together with: quinine bisulfate reference): 0.5
Cc1cc2c(cc1C1(c3ncc(C(=O)O)cn3)CC1)C(C)(C)CCC2(C)C  LDL level (Sprague-Dawley rat, male, plasma; oral, 100 mg/kg, 2 h, sesame oil vehicle): 16 ± 3.5 mg/dL
CC(C)C[C@@H]1NC(=O)[C@@H]2CCCN2C(=O)[C@H](CO)NC(=O)[C@@H](NC(=O)[C@H](Cc2c[nH]cn2)NC(=O)[C@H](CO)NC(=O)[C@H](Cc2ccc(O)cc2)NC(=O)[C@H](CC(=O)O)NC(=O)CNC(=O)CN2CCN(CC(=O)O)CCN(CC(=O)O)CCN(CC(=O)O)CC2)CSSC[C@@H](C(=O)N[C@H](C(=O)N[C@@H](Cc2ccc(O)cc2)C(=O)N2CCC[C@H]2C(=O)N[C@@H](CC(=O)O)C(=O)N2CCC[C@H]2C(=O)N[C@@H](CCC(=O)O)C(=O)NCC(=O)NCC(=O)NCC(N)=O)[C@@H](C)O)NC(=O)[C@H](CCCCN)NC(=O)[C@H](Cc2c[nH]c3ccccc23)NC(=O)[C@H](Cc2c[nH]c3ccccc23)NC(=O)[C@@H]2CCCN2C(=O)[C@H](Cc2ccc(O)cc2)NC(=O)[C@H](Cc2ccc(O)cc2)NC(=O)[C@H](CCCNC(=N)N)NC1=O [gallium-68 labelled]  heart to muscle ratio (PET/CT; NOD-SCID mice, heart over thigh muscle; 45 to 60 min): ~3.8
CC/C=C\C/C=C\C/C=C\C/C=C\C/C=C\CCCCOC(CC)C(=O)O (centres unmarked)  tissue concentration (14C radiolabel; Wistar rats male, liver; oral, 100 mg/kg, 4 h): 174 µg/g
C=C(c1cc(F)c(C(=O)O)c(F)c1)c1cc2c(cc1C)C(C)(C)CCC2(C)C  blood cholesterol (Sprague-Dawley rat, male; oral, 100 mg/kg, 3 h, sesame oil vehicle): 95 ± 16.5 mg/dL
CC1=CC(c2ccccc2)=[O+][Pt-2]([NH3+])([NH3+])[O]1.O=[N+]([O-])[O-] (centres unmarked)  chemical stability (1H NMR; water; up to 25 d, 37 °C): no effect
C[Si]1(C[C@H](CN)CC(=O)O)CCCC1  performance time (neuromuscular coordination; Wistar rat male; oral, 300 mg/kg, 1 h): 180 s
Nc1ncnc2c1nc(-n1nnc3c1CCC1C(CO)C1CC3)n2C1OC(CO)C(O)C1O (mixture of isomers)  second excitation maximum (methanol; red edge of spectrum): 309 nm
COc1cc(-c2nc3ccccc3s2)cc(CN2CCN(CC(=O)OC(C)(C)C)CCN(CC(=O)OC(C)(C)C)CC2)c1O  pKa1 (UV-Vis pH titration; 25 °C, ionic strength 0.1 M NaCl): 3.3
COC(=O)C1OC(Oc2c(-c3ccccc3)oc3cc(O)c(O)c(O)c3c2=O)C(O)C(O)C1O (centres unmarked)  organ weight (BALB/c mouse, spleen; 5 mg/kg): 0.74 ± 0.2 g
Cc1ccc(/N=N/c2c(O)ccc3ccccc23)c(C)c1  measured concentration (extracted rat blood QC samples; 0.2 µg/L, 4 h, room temperature, short-term stability): 0.208 µg/L
Fc1cc2scnc2cc1Nc1ncnc2sc(C3=CCCNC3)cc12  intrinsic clearance (human liver microsomes; 1 µM): < 12 mL/min/g protein
CCc1cc(C)nc2c(CC(=O)N(CC)CC)c(-c3ccc(OCC[18F])cc3)nn12  parent radioligand in plasma (rat, plasma; first 2 min after injection): 89.2%
COc1cc2c(cc1OC)CN(CCCCn1ccc3cc(OCC[18F])ccc31)C2  heart uptake (male ICR mice; intravenous, 2 min post-injection): 15.5 ± 1.37 %ID/g
CCCC(CCC(=O)O)NC(=O)c1ccc2c(c1)OCO2 (centres unmarked)  AUC(0-last) ratio (male Sprague-Dawley rats, plasma; oral, 200 mg/kg of parent drug; reference: 200 over 20 mg/kg dose): 8.95
CC(=O)O[C@@H]1[C@@H](OC(C)=O)[C@H](Sc2sc(C(=O)c3ccc(Br)cc3)c(N)c2-c2nc3ccccc3s2)OC[C@H]1OC(C)=O  maximum nontoxic concentration (DMEM; 72 h): 100 µg/mL
CC(C)C[C@H](NC(=O)C[C@H](O)[C@H](CC(C)C)NC(=O)[C@H](Cc1c[nH]cn1)NC(=O)CNC(=O)[C@@H](NC(=O)[C@H](C)NC(=O)[C@H](Cc1c[nH]c2ccccc12)NC(=O)[C@H](CCC(N)=O)NC(=O)[C@@H](Cc1ccccc1)NC(=O)CCNC(=O)CCNC(=O)CN1CCN(CC(=O)O)CCN(CC(=O)O)CCN(CC(=O)O)CC1)C(C)C)C(N)=O [lutetium-177 labelled]  absorbed dose (MIRD; mouse PC-3 xenograft, pancreas; intravenous, 50 MBq, without PA): 2.5 Gy
C#CC1(NC(=O)C(CC(C)(C)F)NC(c2ccc(-c3ccc(S(C)(=O)=O)cc3)cc2)C(F)(F)F)CC1 (centres unmarked)  GSH adduct formation (LC-MS UV trace; aqueous buffer; 23 h, pH 7.5, 37 °C, together with: GSH 5 mM): 0%
N=C(N)NCCC[C@@H]1NC(=O)[C@H](Cc2c[nH]c3ccccc23)NC(=O)[C@@H](CC2CCCCC2)NC(=O)[C@@H]2CCCN2C(=O)[C@@H](NC(=O)CCc2ccccc2)CCCNC1=O  unchanged drug excreted (C57BL/6J mouse, urine; intravenous, 1 mg/kg, 24 h): ≤ 46%
